# Experimental data from different studies.
# Every numbered part comes from another study and shows a few of its results, in no order.

# Series 1
# Target: Ras GTPase-activating protein-binding protein 1, full length (G3BP1, Homo sapiens, UniProt Q13283)
# UniProt Q13283, sequence (whole entry, looked up): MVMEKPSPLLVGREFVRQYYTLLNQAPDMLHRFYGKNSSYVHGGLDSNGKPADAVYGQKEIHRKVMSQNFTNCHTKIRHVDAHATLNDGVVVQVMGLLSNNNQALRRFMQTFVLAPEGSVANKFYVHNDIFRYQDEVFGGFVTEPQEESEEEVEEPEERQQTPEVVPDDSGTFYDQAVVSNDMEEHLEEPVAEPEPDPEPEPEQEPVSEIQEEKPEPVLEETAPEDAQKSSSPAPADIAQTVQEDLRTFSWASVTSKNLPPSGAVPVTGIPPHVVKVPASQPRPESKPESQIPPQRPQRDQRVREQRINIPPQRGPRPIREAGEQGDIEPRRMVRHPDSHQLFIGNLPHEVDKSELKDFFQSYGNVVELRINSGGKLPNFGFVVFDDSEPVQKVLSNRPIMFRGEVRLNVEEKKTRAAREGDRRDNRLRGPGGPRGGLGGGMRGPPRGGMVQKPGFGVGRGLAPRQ
# Technique: RNA Bind-n-Seq
# Molecule type: RNA
# Matrix: in vitro
# Concentration: 200 nM
# Notes: whole 134-nt RNA, ends assumed
# With: 150 mM KCl
# Baseline: input library
# Reading: higher = stronger binding
# All sequences stand within: GGGAGUUCUACAGUCCGACGAUC … UGGAAUUCUCGGGUGUCAAGG
Strand,log2 enrichment
UCCUCAAGUCCUGUGCUACACAUCGUAUGUACCGAAUCGGCGGGCGGGCGGAAAGUAUUAUGUUACGCCGUUCGGAUCUGCACUUCCAGC,-0.367
CCUCAAGUCCUGUGCUACACAUCGUAUGUACCGAAUCGGGGAGGGAGGAGGGAAAGUAUUAUGUUACGCCGUUCGGAUCUGCACUUCCAG,1.27
UGGCCCUGGUGGCACGCGGGGAGGAAGAGGUGGCCUCAUGGAUCGUGGUGGUCCCGGUGGAAUGUUCAGAGGUGGCCGUGGUGGAGACAG,0.663
AGUCCUGUGCUACACAUCGUAUGUACCGAAUCGGGGCCCCGGGGCCCCGGCCCCGGGAAAGUAUUAUGUUACGCCGUUCGGAUCUGCACU,0.329
UUAAGAAUUUGCUUAAAGAAGUGCGGAUCUAUGCACAGAAAUUUAUUGAUCGAGGAAAGGAUUUUAACUUGGAGUUGGCAAUUAAAACAC,0.211
CUCAAGUCCUGUGCUACACAUCGUAUGUACCGAAUCGGUGGUUUGGAAAAAGGAAAGUAUUAUGUUACGCCGUUCGGAUCUGCACUUCCA,-0.246
UCAAGUCCUGUGCUACACAUCGUAUGUACCGAAUCGGGUUUGGGUUUGGGUGGGAAAGUAUUAUGUUACGCCGUUCGGAUCUGCACUUCC,0.99
UGGGAGGUGGAUUUUGUUUAUUUUUUUAGCUCAUUUCCAGGGGUGGGAAUUUUUUUUUAAUAUGUGUCAUGAAUAAAGGUGUUUUUGAAA,0.049
UGGCCCUGGUGGCAUGCGGGCAGGAAGAGGUGGCCUCAUGGAUCGUGGUGGUCCCGGUGGAAUGUUCAGAGGUGGCCGUGGUGGAGACAG,-0.0209
AAGUCCUGUGCUACACAUCGUAUGUACCGAAUCGGUUUUUGGGUUUUUGGUUUUUGGAAAGUAUUAUGUUACGCCGUUCGGAUCUGCACU,-1.32
GCAGGAAGUAAAAACAAAUGGAAAUGCUUCGGAUAGUGGCAGGGGUGGGGGUUGCUAAGGAAAGGGUGGGAUGGGAGUGGGUAAAGUGUU,0.807
ACCAUGCAGGUGGGCAUCUUUGGGAAAUGGGGCAAGGGGGGGAUAGGGAGGGGGGUAACACUUUGGGAACAGGUGGUCCCAGGUCGUUUC,1.53
GCAGGAAGUAAAAAAAAAUGGAAAUGCUUCGGAUAGUGGCAGGGGUGGGGGUUGCUAAGGAAAGGGUGGGAUGGGAGUGGGUAAAGAGUU,0.474
GCAGGAAGUAAAAACAAAUGGAAAUGCUUCGGAUAGUGGCAGGGGUGGGGGUUGCUAAGGAAAGGGUGGGAAAAGAGUGGGUAAAGAGUU,0.813

# Series 2
# Target: Sal-like protein 4, full length isoform A (SALL4, Homo sapiens, UniProt Q9UJQ4, residues 1-1053)
# UniProt Q9UJQ4, sequence (whole entry, looked up): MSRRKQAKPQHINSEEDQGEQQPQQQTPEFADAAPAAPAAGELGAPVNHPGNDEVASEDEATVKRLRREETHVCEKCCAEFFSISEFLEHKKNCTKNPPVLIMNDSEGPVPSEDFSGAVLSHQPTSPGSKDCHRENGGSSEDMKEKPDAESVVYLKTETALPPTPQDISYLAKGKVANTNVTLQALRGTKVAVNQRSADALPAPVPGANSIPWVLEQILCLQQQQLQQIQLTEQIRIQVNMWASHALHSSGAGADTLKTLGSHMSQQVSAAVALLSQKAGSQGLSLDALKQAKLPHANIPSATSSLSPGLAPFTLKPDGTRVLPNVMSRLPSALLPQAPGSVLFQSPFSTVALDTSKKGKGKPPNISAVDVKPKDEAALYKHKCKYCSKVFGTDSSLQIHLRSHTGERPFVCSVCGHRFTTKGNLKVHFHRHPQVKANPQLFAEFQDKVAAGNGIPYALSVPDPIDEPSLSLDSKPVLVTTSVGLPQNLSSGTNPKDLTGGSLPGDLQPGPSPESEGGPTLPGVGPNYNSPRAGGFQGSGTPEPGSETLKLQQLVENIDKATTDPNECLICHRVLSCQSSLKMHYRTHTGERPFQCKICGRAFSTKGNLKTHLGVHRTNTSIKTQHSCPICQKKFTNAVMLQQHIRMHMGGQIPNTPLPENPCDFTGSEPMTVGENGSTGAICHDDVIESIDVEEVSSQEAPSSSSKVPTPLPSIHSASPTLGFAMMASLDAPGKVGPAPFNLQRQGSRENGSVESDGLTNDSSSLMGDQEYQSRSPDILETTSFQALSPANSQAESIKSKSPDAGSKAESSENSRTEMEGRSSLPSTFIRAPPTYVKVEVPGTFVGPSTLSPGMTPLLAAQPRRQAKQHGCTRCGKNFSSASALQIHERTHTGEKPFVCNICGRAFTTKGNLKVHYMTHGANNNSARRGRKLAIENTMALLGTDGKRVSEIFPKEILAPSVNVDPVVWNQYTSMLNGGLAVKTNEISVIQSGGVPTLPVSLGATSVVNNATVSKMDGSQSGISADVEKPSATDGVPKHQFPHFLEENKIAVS
# Technique: universal PBM
# Molecule type: double-stranded DNA, one strand shown
# Matrix: in vitro
# Concentration: 600 nM
# Notes: 8-mer, flanks averaged, mean of replicates
# Reading: higher = stronger binding
Strand,E-score
AGTCGCTC,-0.135
GTACTACA,0.168
CGGGACGC,-0.28
ACTCAGCC,-0.234
CAAAGATA,0.198
GAGATGAC,-0.0725
CAAATAAA,0.259
CGCCACCG,-0.304
AAACTCAA,0.248
ATCTTAAT,0.258
CTGTGGGA,-0.276
CGGCACTA,-0.246
CCAGCGCA,-0.278
ACGTAAAT,0.153
GATAAACC,0.0748
ATGTACGA,0.178
ATATGCAA,0.235
ACTGGCAA,0.144
AGGGATTC,-0.17
AGGGTGAA,-0.0373

# Series 3
# Target: Histone acetyltransferase KAT6A, winged helix 1, GST fusion (KAT6A, Homo sapiens, UniProt Q92794, residues 1-85)
# Technique: protein binding microarray
# Molecule type: double-stranded DNA, one strand shown
# Matrix: in vitro
# Concentration: not given
# Notes: 8-mer, flanks averaged, mean of 2 arrays, mostly near background
# Baseline: not given
# Reading: higher = stronger binding
# Target sequence (chain): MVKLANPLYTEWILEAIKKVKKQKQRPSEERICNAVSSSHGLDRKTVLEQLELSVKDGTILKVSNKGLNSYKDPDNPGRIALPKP
Strand,E-score
ACACGAAC,-0.003
CACTCGGG,0.0631
ACCCGGTG,0.301
AGCACGTC,-0.0758
GATCTCCC,0.00822
ATCCCGGC,0.365
AAGACCAG,-0.165
CAAAACGG,0.151
CCATGACG,0.0686
ATAGCACA,-0.114
TCGAACGA,-0.0882
CTCTCGCC,-0.0515
CGCGTAGC,0.399
ACGGCCCG,0.356
ATTATACC,0.0132
GCATCGAC,-0.14
CAAGATTC,-0.169

# Series 4
# Target: Centromere-binding protein 1, full length, His-tagged (CBF1, Saccharomyces cerevisiae, UniProt P17106, residues 1-351)
# UniProt P17106, sequence (whole entry, looked up): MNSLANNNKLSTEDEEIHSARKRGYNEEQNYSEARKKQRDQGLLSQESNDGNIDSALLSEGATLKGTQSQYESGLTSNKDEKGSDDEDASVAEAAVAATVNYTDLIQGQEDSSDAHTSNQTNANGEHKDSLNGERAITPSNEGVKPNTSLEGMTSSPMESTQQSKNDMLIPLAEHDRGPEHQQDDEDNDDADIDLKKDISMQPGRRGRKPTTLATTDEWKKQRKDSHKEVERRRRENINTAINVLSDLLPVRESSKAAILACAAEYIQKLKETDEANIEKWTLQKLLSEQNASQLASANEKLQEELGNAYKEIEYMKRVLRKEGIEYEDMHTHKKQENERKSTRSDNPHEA
# Technique: competition protein-binding microarray
# Molecule type: double-stranded DNA, one strand shown
# Matrix: in vitro
# Concentration: 2 µM
# Notes: whole 60-bp probe, lowest competitor level
# With: Pho4 competitor, 0.05 µM
# Reading: higher = stronger binding
# All sequences stand within: … GTCTTGATTCGCTTGACGCTGCTG
Strand,fluorescence intensity
CTTCTGTAAATTTGCGAGGTGGGTGGACGCGCCCCG,85.1 a.u.
AATACCCTGGCATCTCTCGTGACGGGTTACCATTTA,145 a.u.
CTTTCCCGATCTTTTCACGTGATCTTAGCACATTTG,5000 a.u.
GAAGCTGTTATACTATTCGTGATTGTGGGCAAAAAT,82.2 a.u.
CGGGGTTAAGTTTTTCACGTGGCTTGCTTGCAGCAG,709 a.u.
GGGAATACAAACCTTGATGTGACGCTTTAGCCAATA,79.5 a.u.
TTTGGTGACTTACACCACATGTAATGACGCTATGAC,117 a.u.
TGGATATGCCGATTTCTCGTGAATAAATTTTACGGA,95.9 a.u.
CTAACGAAGGTTTGCTCCGTGGGTGACAAGCCAAGT,72.3 a.u.
GTCGGCGGCGCAGCTCACGTGACCGCGCTCTGGGCC,8500 a.u.
CCTCTTTTTCACCCGATTATTTTCATTTATTAGTAA,77 a.u.
CATACCCAACCTTTTCACGTGACCTAAGATATTTGT,10300 a.u.
ATGCCATGGGTGTCTCATGTGGTCCAGTGAGTTGAT,76.2 a.u.
CGGGGTTAAGTTTGTTTCGTGGGTGGCTTGCAGCAG,75.2 a.u.
AAATTACTAAGTTGCCACGTGGGTGACGCCGTATGA,988 a.u.
TTGCTCCTGGATTGGTTCGTGACTCGGCACTTTACG,85.8 a.u.
ATTGTTTACACCAATCGCGTGGGTAAAGGGGCTGGA,75.7 a.u.
TATAGAAAATTTCTGAGTGAAGGGTGGTCTATACAC,66.4 a.u.
TGCGCAACAACTTGGCGAGTGGGTGTATGTCTAGAA,56.9 a.u.
CTTGTGCGGGGAGGACACGCTGAATAGAAGGCTTGT,73.3 a.u.
CTTCTGTAAATTTGTGCCGTGGGTGGACGCGCCCCG,81.2 a.u.
ACATACGCATATTTGCACGTACAAGATAAAAAAAGC,107 a.u.
TGTTAAGTTCAACAACATGTGAAATTCTTAGCTCCG,117 a.u.
CAATTGTTGCTCTGGCACGTGAGATATATGGTAAGA,2040 a.u.
AAAGCGGTAATTTGCAGGGTGGGTGCAGATATCTAT,65 a.u.

# Series 5
# Target: Interferon regulatory factor 7, full length, phosphomimetic (IRF7, Homo sapiens, UniProt Q92985, residues 1-503, S101K/S471D/S472D/S475D/S476D/S477D/S483D/S484D/S487D)
# Technique: protein-binding microarray
# Molecule type: double-stranded DNA, one strand shown
# Matrix: in vitro
# Concentration: 250 nM
# Notes: 60-bp whole probe
# With: salmon DNA 0.4 mg/ml
# Baseline: random background probes
# Reading: higher = stronger binding
# All sequences stand within: GCCTAGCAC … GTCTTGATTCGCTTGACGCTGCTG
# Construct (chain): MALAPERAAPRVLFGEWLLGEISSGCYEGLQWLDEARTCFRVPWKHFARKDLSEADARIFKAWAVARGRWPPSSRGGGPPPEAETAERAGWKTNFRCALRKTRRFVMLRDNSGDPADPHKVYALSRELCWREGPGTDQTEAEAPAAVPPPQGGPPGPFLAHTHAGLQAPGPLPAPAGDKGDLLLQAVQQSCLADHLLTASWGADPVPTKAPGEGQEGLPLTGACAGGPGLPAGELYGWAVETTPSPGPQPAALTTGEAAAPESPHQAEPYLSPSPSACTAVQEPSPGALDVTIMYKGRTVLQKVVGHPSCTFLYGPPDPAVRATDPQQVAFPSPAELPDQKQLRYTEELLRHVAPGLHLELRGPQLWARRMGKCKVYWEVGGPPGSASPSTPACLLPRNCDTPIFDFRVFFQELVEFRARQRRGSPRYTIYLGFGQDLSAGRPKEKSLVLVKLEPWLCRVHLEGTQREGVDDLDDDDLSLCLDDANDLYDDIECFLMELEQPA
Strand,log fluorescence [z-score]
TTAGATATCGGGTATCGCTTAGTGCTA,0.22
TTTACTTTCTATGTCTGTTTGTGCTAG,1.53
TTATATTTCAGTTTCGATTAGTGCTAG,9.76
GATGGACTGGACTATCGGGACGTGCTA,-0.749
TTAGGTCTCGGTATCGATTAGTGCTAG,3.31
GACGGACTGGGTTTAGGGACGTGCTAG,-0.421
TTAGGTACCGGACTGGGTTAGTGCTAG,0.124
TCAAAATTTTTTTTCTAACTGTGCTAG,0.109
TTAGGACTGGGTATCGGTTGGTGCTAG,0.986
GCCGAACTGGGGTATCGAGACGTGCTA,-0.536
GTCCCTGAATGAAAACATCATGTGCTA,1.81
TCTACTGTCTGTTTCCTCTTGTGCTAG,0.654
TTTACTTTCTGAATGCTCCCGTGCTAG,1.65
TCATTTTCATTTTCTGAAACTGTGCTA,3.37
GACGATTTGAGACTGGAGACGTGCTAG,0.00223
TCATATATTTTAATCACACTGTGCTAG,0.785
TTAGGTTTCGGTCACGGTTAGTGCTAG,4.28
GACGGTATCCTTTTCCTGCCGTGCTAG,0.611
AAGACCATCCTATGTAGATGTGTGCTA,0.659
GACGATCTCCTTTTCCTGACGTGCTAG,0.551
TTAGAAATGGGGTATCGATTAGTGCTA,0.138
TCATCCATGTGTTTAAAACTGTGCTAG,0.16
GACGGACTGGTGTTTCGGGACGTGCTA,-0.0755
GAGAAAATGATTTTTTTCATGTGCTAG,0.0589
GACGGCCTCCTTCTCCTGACGTGCTAG,-0.378
